{"data": "Results collected from several papers", "target": "Mitogen-activated protein kinase kinase kinase 9 (MAP3K9, Homo sapiens, UniProt P80192)", "chain of UniProt P80192 (whole entry, looked up)": "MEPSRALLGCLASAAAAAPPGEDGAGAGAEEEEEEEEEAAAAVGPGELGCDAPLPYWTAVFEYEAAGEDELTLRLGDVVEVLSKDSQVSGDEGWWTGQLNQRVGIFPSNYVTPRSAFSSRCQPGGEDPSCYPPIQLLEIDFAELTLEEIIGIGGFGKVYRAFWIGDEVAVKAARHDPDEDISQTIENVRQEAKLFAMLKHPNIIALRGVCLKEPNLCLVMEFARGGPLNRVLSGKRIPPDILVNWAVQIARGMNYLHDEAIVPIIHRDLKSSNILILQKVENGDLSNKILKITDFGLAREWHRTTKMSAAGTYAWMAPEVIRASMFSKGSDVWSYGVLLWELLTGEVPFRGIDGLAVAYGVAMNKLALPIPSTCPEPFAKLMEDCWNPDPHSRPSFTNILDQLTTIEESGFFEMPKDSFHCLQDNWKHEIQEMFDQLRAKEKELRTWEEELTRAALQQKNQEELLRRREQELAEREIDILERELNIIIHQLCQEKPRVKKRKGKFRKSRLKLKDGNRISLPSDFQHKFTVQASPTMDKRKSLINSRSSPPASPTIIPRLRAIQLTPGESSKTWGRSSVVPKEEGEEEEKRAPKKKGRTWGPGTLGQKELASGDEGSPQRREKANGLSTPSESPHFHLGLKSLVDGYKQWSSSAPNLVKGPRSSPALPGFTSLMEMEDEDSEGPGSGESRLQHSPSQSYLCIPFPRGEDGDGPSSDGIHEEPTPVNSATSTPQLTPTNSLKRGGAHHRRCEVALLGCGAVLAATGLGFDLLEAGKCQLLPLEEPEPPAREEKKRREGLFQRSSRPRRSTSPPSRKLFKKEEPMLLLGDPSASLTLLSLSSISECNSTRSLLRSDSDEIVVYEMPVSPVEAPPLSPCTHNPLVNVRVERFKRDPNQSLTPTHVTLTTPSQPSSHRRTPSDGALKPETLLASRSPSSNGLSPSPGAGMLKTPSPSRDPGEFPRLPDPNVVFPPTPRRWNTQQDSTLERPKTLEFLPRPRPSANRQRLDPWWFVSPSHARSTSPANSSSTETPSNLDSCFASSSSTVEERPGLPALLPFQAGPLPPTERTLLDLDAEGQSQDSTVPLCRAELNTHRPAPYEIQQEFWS"}
{"Structure (SMILES)": "CC(C)=CC1OC(C)(C)C2C=C3C(=O)C(Cl)=CC(O)C3C3C(O)C4OC4C(=O)C132 (stereo not shown)", "test": "cell-free assay, competition with immobilised ligand", "setting": "10 µM", "measurement": "remaining binding", "result": "93%"}
{"Structure (SMILES)": "NC(=O)C[C@H]1CCc2sc3ncnc(O[C@H]4CC[C@H](N5CCOCC5)CC4)c3c21", "test": "enzyme activity, inhibitor", "setting": "10 µM", "measurement": "inhibition", "result": "7%"}
{"Structure (SMILES)": "CC(=O)N1c2ccc(-c3ccc(CNC(=O)c4cn5cc(-c6cnc(N)nc6)nc(N6CCOCC6)c5n4)cc3)cc2CC[C@@H]1C", "test": "KINOMEscan", "setting": "10 µM", "measurement": "remaining binding", "result": "32%"}
{"Structure (SMILES)": "CCN1CCN(Cc2ccc(C(=O)Nc3ccc(C)c(NCc4cnc5[nH]ccc5c4OC)c3)cc2C(F)(F)F)CC1", "test": "binding, competition with immobilised ligand", "setting": "1 µM", "measurement": "remaining binding", "result": "100%"}
{"Structure (SMILES)": "CNC(=O)C[C@H](Cc1ccc(C#N)cc1)NC(=O)c1cc(-c2ccc(CN[C@H](C)c3ccc(C)cc3)o2)ccc1Cl", "test": "enzyme activity, inhibitor", "setting": "1 µM", "measurement": "activity vs control", "result": "103%"}
{"Structure (SMILES)": "C=CC(=O)N1CCCC(n2c(=O)c3ncccc3n(Cc3ccc(Oc4ccccc4)cc3)c2=O)C1 (stereo not shown)", "test": "cell-free assay, competition with immobilised ligand", "setting": "1 µM", "measurement": "remaining binding", "result": "83%"}
{"Structure (SMILES)": "CNC(=O)C1CCN(c2cc(C)c(F)cc2NC(=O)c2ccc(-c3cc(O)ccc3C)c(C)c2)CC1", "test": "binding, competition with immobilised ligand", "setting": "1 µM", "measurement": "remaining binding", "result": "90%"}
{"Structure (SMILES)": "C=C1CCCCCCCCCC(CO)C1=O (stereo not shown)", "test": "cell-free assay, competition with immobilised ligand", "setting": "10 µM", "measurement": "remaining binding", "result": "100%"}
{"Structure (SMILES)": "O=C=[N][Ru-4]123([n]4c5ccc(O)cc5c5c6c(c7cc(F)c[n+]1c7c54)C(=O)NC6=O)[S+]1CC[S+]2CC[S+]3CC1 (stereo not shown)", "test": "enzyme activity", "setting": "100 nM, human enzyme, with: 10 µM ATP", "scale": "baseline: untreated", "measurement": "remaining activity", "result": "86%"}
{"Structure (SMILES)": "COc1ccc(O)cc1-c1c[nH]c2ncc(-c3cncc(C(=O)N(C)C)c3)cc12", "test": "binding, competition with immobilised ligand", "setting": "0.2 µM", "measurement": "inhibition", "result": "29.5%"}
{"Structure (SMILES)": "CN1CCN(Cc2ccc(NC(=O)c3cccc(C#Cc4cnc(N)c5ncccc45)c3)cc2C(F)(F)F)CC1", "test": "cell-free assay, competition with immobilised ligand", "setting": "50 nM", "measurement": "remaining binding", "result": "83%"}
{"Structure (SMILES)": "Nc1ncc(-c2cc(-c3cnn(CC(F)(F)F)c3)ncc2F)nc1C(=O)NC1CNCC(F)C1 (stereo not shown)", "test": "enzyme activity", "setting": "1 µM", "scale": "baseline: DMSO control", "measurement": "remaining activity", "result": "88.5%"}
{"Structure (SMILES)": "COc1ccc(NC(=O)Nc2ccc3c(c2)C(=O)N(C(C)CO)CC(C)C(CN(C)Cc2ccc4c(c2)OCO4)O3)cc1 (stereo not shown)", "test": "binding, competition with immobilised ligand", "setting": "10 µM", "measurement": "remaining binding", "result": "91%"}
{"Structure (SMILES)": "Cc1cnc2nc1Nc1cccc(c1)COC/C=C/COCc1cc(ccc1OCCN1CCOCC1)N2", "test": "binding, competition with immobilised ligand", "setting": "0.1 µM", "measurement": "remaining binding", "result": "93%"}
{"Structure (SMILES)": "COc1cc(Nc2nccc(-c3cnn4nc(OC)ccc34)n2)cc(C(F)(F)F)c1", "test": "binding, competition with immobilised ligand", "setting": "1 µM", "measurement": "remaining binding", "result": "100%"}
{"Structure (SMILES)": "CCn1cc(C(=O)O)c(=O)c2c(N)c(F)c(NC3CCCCC3)cc21", "test": "kinase activity", "setting": "0.1 µM, with: ATP at Km", "measurement": "inhibition", "result": "-4.5%"}
{"note": "Some of these lines once more:"}
{"Structure (SMILES)": "CC(C)=CC1OC(C)(C)C2C=C3C(=O)C(Cl)=CC(O)C3C3C(O)C4OC4C(=O)C132 (stereo not shown)", "test": "cell-free assay, competition with immobilised ligand", "setting": "10 µM", "measurement": "remaining binding", "result": "93%"}
